Experimental data from different studies.
Each line is one published result; not all experiments were run side by side. Values after ≈ are worked out from the molar mass of the structure shown.
4'-phosphopantetheinyl transferase PptT: 4'-phosphopantetheinyl transferase PptT (Mycobacterium tuberculosis, UniProt O33336)
UniProt O33336, sequence (whole entry, looked up): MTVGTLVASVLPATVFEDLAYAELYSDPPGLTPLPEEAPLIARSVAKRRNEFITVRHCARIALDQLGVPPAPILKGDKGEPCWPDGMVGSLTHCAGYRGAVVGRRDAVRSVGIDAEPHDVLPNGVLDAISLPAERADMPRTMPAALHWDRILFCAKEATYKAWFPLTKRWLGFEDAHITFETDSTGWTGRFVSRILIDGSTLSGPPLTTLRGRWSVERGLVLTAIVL
UniProt Q9NSY1, sequence (whole entry, looked up): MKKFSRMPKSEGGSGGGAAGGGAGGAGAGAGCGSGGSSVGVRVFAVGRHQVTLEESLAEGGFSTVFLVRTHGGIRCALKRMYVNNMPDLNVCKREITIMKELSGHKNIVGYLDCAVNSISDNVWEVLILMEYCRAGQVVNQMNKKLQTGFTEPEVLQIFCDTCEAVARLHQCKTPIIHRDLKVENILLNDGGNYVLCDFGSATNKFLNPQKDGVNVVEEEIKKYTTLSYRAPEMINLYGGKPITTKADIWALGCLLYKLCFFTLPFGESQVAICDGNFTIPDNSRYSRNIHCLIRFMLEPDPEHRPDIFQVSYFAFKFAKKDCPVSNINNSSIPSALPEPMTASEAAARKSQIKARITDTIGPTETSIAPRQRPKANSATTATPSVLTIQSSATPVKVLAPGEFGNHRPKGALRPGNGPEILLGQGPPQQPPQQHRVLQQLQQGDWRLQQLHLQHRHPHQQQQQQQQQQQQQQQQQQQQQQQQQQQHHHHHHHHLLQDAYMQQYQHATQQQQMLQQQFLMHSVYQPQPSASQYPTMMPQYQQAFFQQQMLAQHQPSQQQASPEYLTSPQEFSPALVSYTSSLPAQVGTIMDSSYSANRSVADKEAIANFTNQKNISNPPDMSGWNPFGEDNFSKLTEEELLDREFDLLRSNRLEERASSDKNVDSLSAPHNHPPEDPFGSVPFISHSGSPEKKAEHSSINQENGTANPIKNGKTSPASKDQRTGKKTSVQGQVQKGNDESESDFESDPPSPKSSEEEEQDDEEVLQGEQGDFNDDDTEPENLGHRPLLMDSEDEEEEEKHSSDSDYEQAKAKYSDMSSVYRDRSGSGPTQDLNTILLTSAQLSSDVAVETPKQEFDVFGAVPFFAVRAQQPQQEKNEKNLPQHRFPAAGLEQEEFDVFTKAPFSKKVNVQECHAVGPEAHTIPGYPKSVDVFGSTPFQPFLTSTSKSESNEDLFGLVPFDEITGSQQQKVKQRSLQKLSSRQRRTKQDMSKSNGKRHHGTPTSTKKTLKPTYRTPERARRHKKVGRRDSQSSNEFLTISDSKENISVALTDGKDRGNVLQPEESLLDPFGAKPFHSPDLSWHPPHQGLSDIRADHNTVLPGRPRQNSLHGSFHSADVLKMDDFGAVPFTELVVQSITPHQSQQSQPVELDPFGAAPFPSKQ
UniProt P28222, sequence (whole entry, looked up): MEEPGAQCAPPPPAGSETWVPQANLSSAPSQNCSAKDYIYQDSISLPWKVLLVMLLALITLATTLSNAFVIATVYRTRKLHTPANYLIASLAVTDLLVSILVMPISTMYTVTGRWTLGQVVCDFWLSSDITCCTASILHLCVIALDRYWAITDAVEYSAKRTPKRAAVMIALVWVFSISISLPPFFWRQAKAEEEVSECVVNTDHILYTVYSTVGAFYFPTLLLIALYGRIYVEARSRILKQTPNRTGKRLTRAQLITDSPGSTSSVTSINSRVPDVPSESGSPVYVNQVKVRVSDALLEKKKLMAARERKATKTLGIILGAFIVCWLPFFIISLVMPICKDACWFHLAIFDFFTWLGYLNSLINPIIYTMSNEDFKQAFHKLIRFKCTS
UniProt Q8NG66, sequence (whole entry, looked up): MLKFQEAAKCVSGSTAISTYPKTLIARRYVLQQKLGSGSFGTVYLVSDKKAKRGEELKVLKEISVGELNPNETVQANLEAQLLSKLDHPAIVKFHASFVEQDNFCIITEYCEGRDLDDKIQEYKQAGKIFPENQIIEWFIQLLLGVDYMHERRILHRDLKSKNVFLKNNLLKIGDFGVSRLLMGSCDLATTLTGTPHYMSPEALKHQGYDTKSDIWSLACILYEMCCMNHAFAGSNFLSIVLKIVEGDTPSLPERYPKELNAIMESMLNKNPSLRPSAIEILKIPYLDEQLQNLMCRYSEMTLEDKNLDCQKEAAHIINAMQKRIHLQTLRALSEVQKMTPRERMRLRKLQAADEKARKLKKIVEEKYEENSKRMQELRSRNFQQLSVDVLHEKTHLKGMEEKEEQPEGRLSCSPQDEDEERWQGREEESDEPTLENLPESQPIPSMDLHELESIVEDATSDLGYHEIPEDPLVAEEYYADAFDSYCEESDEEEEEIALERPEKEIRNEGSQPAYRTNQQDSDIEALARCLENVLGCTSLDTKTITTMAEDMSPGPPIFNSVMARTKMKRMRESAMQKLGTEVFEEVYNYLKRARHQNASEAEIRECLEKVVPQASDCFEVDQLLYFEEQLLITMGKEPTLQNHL
UniProt Q9BQI3, sequence (whole entry, looked up): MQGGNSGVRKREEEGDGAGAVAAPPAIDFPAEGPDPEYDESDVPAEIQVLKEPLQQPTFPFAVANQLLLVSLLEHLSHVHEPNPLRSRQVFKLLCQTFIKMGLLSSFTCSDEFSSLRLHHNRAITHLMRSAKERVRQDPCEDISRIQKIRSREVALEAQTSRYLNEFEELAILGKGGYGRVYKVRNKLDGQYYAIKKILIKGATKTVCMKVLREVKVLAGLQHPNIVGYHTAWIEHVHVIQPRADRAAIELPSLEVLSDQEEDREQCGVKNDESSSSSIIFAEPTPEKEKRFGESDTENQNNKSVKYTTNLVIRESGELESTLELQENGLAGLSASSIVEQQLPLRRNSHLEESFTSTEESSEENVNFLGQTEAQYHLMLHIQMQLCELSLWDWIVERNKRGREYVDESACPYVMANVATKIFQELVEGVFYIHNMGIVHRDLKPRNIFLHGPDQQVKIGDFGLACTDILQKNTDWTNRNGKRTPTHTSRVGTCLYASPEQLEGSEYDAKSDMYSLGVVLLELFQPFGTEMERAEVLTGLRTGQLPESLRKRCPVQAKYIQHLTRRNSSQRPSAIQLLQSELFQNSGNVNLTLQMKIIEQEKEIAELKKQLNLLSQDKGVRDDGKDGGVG
UniProt Q9UF33, sequence (whole entry, looked up): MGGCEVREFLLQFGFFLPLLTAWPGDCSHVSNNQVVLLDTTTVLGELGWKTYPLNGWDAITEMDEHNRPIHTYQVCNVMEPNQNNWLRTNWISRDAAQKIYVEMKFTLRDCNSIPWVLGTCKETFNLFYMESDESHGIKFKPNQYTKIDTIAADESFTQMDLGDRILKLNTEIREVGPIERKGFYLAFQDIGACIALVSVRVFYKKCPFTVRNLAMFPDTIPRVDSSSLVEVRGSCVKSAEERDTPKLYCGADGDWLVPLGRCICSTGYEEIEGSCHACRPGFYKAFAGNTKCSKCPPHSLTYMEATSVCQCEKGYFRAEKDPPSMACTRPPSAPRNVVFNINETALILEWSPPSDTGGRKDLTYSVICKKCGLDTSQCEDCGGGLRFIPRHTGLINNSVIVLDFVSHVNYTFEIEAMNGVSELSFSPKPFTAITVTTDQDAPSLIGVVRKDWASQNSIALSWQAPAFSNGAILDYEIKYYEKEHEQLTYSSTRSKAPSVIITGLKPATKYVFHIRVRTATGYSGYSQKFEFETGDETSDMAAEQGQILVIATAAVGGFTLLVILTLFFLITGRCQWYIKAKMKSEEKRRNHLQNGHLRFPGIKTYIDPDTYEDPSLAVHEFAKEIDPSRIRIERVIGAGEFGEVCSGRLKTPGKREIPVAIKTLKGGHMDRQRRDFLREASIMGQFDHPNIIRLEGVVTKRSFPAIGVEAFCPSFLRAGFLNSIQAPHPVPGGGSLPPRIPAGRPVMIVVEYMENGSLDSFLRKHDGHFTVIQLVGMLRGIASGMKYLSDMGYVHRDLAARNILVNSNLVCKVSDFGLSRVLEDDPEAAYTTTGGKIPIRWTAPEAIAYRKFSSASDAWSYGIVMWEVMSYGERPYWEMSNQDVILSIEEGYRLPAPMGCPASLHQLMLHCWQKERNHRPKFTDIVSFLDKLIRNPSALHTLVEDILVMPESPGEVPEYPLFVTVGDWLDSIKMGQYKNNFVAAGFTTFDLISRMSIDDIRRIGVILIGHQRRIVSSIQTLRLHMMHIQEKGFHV

The IC50 of `C[N+]1=C2C=C(NCCc3ccc(O)cc3)C(=O)c3[nH]cc(c32)CC1` is reported as 166 nM (Babesia duncani; parasite growth, SYBR Green; 60 h, blood stage).
`CC(C)[C@H]1NC(=O)[C@H](Cc2ccccc2)NC(=O)CNC(=O)[C@@H](Cc2ccccc2)NC(=O)[C@H](CCCCN)NC(=O)[C@@H](CCCN)NC1=O` gave an IC90 of > 16 µg/mL (Balamuthia mandrillaris; parasite growth, ATP luminescence).
For `COC(=O)c1cc(-c2cccc(NC(=O)Nc3ccc(Cl)c(C(F)(F)F)c3)c2)on1`, the MIC was > 64 µg/mL (Escherichia coli; microbial growth, broth dilution; ATCC25922).
The inhibition of `O=C(NNc1ccccc1)c1nnc(CC23CC4CC(CC(C4)C2)C3)o1` is reported as 44.3% (Pyricularia grisea; microbial growth; 50 µg/mL).
With `COC(=O)c1cc(-c2cccc(NC(=O)Nc3ccc(C)c(Cl)c3)c2)on1` the MIC was > 64 µg/mL (Mycobacteroides abscessus; microbial growth, broth dilution; ATCC19977; 48 h).
`CC(C)[C@@H]1NC(=O)[C@@H](C(C)C)NC(=O)[C@H](C)NC(=O)[C@H](CO)NC(=O)[C@H](Cc2c[nH]c3ccccc23)NC(=O)[C@@H](Cc2ccc(O)cc2)NC(=O)[C@H](CCCN)NC(=O)[C@H](Cc2c[nH]c3ccccc23)NC1=O` has an IC50 of > 16 µg/mL (Balamuthia mandrillaris; parasite growth, ATP luminescence).
With `CN(C)c1ccc(C(=O)NCCCCCCC(=O)NO)cc1` the viability was 7.65% (HBL1; cell growth or viability, ATP luminescence; 1 µM, 5 days).
For `O=c1cc(CSc2ccc(N=Cc3cccc(Br)c3)cc2)occ1O`, the IC50 was 3280 nM (ABTS scavenging, absorbance).
The IC50 of `C[C@H]1NC(=O)[C@H](Cc2ccccc2)NC(=O)[C@@H](Cc2ccccc2)NC(=O)[C@H](Cc2ccccc2)NC(=O)[C@@H](CCCN)NC(=O)[C@H](CCCN)NC1=O` is reported as 10200 nM (Balamuthia mandrillaris; parasite growth, ATP luminescence).
For `Nc1cc(I)c(I)cc1N`, the IC50 was 15000 nM (ME-180; cell growth or viability; 72 h).
`COC(=O)c1cc(-c2cccc(NC(=S)Nc3cc(C(F)(F)F)cc(C(F)(F)F)c3)c2)on1` gave an MIC of > 64 µg/mL (Acinetobacter baumannii; microbial growth, broth dilution; BAA1605).
For `COc1ccc(Nc2nn3c(-c4ccccc4)ccnc3c2C(=O)Nc2ccccc2)cc1`, the viability was 98.7% (A549; cell growth or viability, MTT; 6.25 µg/mL, 48 h, serum-free).
For `O=c1cc(CSc2ccc(N=Cc3ccc(Cl)cc3)cc2)occ1O`, the IC50 was 30 nM (ABTS scavenging, absorbance).
`COC(=O)c1cc(-c2ccc(OC)c(NC(=O)Nc3ccc(Cl)c(Cl)c3)c2)on1` gave an MIC of > 64 µg/mL (Mycobacteroides abscessus; microbial growth, broth dilution; ATCC19977; 48 h).
`[2H]c1c([2H])c([C@]2([2H])CCCN2C(=O)C(C)(C)Oc2ccc3cn[nH]c3c2)c([2H])c([2H])c1C([2H])([2H])[2H]` gave a remaining binding of 94% (Ephrin type-A receptor 6 (EPHA6, Homo sapiens, UniProt Q9UF33); binding, competition with immobilised ligand; 1 µM).
For `CC(C)[C@@H]1NC(=O)[C@@H](Cc2ccccc2)NC(=O)[C@H](Cc2ccccc2)NC(=O)[C@@H]([C@H](C)O)NC(=O)[C@@H](CCCNC(=N)N)NC1=O`, the IC50 was > 16 µg/mL (Balamuthia mandrillaris; parasite growth, ATP luminescence).
`Cc1cccc(C=Nc2ccc(SCc3cc(=O)c(O)co3)cc2)c1` has an IC50 of 22900 nM (ABTS scavenging, absorbance).
The MFC of `CC(=O)N1CCN(c2ccc(OCC3COC(Cn4ccnc4)(c4ccc(Cl)cc4Cl)O3)cc2)CC1` (centres unmarked) is reported as > 64 µM (Candida albicans; microbial killing, broth dilution; 56214; 48 h).
The EC50 of `O=C(NNc1cccc(Cl)c1)c1nnc(CC23CC4CC(CC(C4)C2)C3)o1` is reported as 5.56 µg/mL (≈ 14.4 µM) (Pyricularia grisea; microbial growth).
With `Cc1sc2c(c1C)C(c1ccc(Cl)cc1)=N[C@H](CC(=O)OC(C)(C)C)c1nnc(C)n1-2` the viability was 202% (OCI-Ly1; cell growth or viability, ATP luminescence; 0.1 µM, 5 days).
`NCCCC[C@H]1NC(=O)[C@H](CO)NC(=O)[C@H](Cc2ccccc2)NC(=O)[C@@H](Cc2ccccc2)NC(=O)[C@H](Cc2c[nH]c3ccccc23)NC(=O)[C@@H](CCCN)NC(=O)[C@H](CCCN)NC1=O` gave an IC50 of > 16 µg/mL (Balamuthia mandrillaris; parasite growth, ATP luminescence).
`COC(=O)c1cc(-c2cccc(NC(=O)Nc3cccc(Br)c3)c2)on1` gave an MIC of > 64 µg/mL (Mycobacteroides abscessus; microbial growth, broth dilution; ATCC19977; 48 h).
`Cc1nn(C)cc1-c1nc2c(N3CCN(Cc4ccc(Cl)cc4)CC3)c(Cl)cnc2[nH]1` has a remaining binding of 100% (Serine/threonine-protein kinase Nek11 (NEK11, Homo sapiens, UniProt Q8NG66); binding, competition with immobilised ligand; 1 µM).
The inhibition of `N.N.[Cl][Pt][Cl]` is reported as 100% (SU-DHL-5; cell growth or viability, ATP luminescence; 10 µM, 72 h).
`O=C(NNc1ccc(F)c(F)c1)c1nnc(C23CC4CC(CC(C4)C2)C3)o1` gave an inhibition of 51.4% (Pyricularia grisea; microbial growth; 50 µg/mL).
With `O=c1c2nc(Cl)ccc2[nH]c(=S)n1Cc1cccnc1` the IC50 was 1900 nM (4'-phosphopantetheinyl transferase PptT; enzyme activity, inhibitor, FP).
With `O=C(NNc1ccc(Cl)c(Cl)c1)c1nnc(C23CC4CC(CC(C4)C2)C3)o1` the inhibition was 45.1% (Pyricularia grisea; microbial growth; 50 µg/mL).
`O=c1cc(CSc2ccc(N=Cc3ccccc3Cl)cc2)occ1O` has an IC50 of 20 nM (ABTS scavenging, absorbance).
For `COc1ccc(Nc2nn3c(-c4ccccc4)ccnc3c2C(=O)Nc2ccc(Cl)cc2)cc1`, the viability was 38.3% (A549; cell growth or viability, MTT; 50 µg/mL, 48 h, serum-free).
For `O=c1cc(CSc2ccc(N=Cc3cccc(F)c3)cc2)occ1O`, the IC50 was 220 nM (ABTS scavenging, absorbance).
`O=C(NNc1cc(F)ccc1F)c1nnc(C23CC4CC(CC(C4)C2)C3)o1` gave an EC50 of > 12.5 µg/mL (Pyricularia grisea; microbial growth).
`O=c1cc(CSc2ccc(N=Cc3ccc(Br)cc3)cc2)occ1O` has an IC50 of 930 nM (ABTS scavenging, absorbance).
For `O=C(NNc1cc(F)ccc1F)c1nnc(CC23CC4CC(CC(C4)C2)C3)o1`, the inhibition was 100% (Pyricularia grisea; microbial growth; 50 µg/mL).
`NCCCC[C@@H]1NC(=O)[C@@H](CCCCN)NC(=O)[C@H](CO)NC(=O)[C@H](Cc2c[nH]c3ccccc23)NC(=O)[C@@H](Cc2c[nH]c3ccccc23)NC(=O)[C@H](Cc2ccccc2)NC(=O)[C@@H](CCCCN)NC1=O` has an IC50 of > 16 µg/mL (Balamuthia mandrillaris; parasite growth, ATP luminescence).
For `Cc1ccc(NNC(=O)c2nnc(CC34CC5CC(CC(C5)C3)C4)o2)cc1`, the inhibition was 41.7% (Pyricularia grisea; microbial growth; 50 µg/mL).
For `CC(C)[C@H]1NC(=O)[C@H](CCCNC(=N)N)NC(=O)CNC(=O)[C@@H](Cc2c[nH]c3ccccc23)NC(=O)[C@H](CCCCN)NC(=O)[C@@H](CCCN)NC1=O`, the IC90 was > 16 µg/mL (Balamuthia mandrillaris; parasite growth, ATP luminescence).
The remaining binding of `COc1ncccc1-c1cnn2ccc(N3CCN(C(=O)OC(C)C)CC3)nc12` is reported as 100% (Eukaryotic translation initiation factor 2-alpha kinase 1 (EIF2AK1, Homo sapiens, UniProt Q9BQI3); binding, competition with immobilised ligand; 1 µM).
`CC(C)CC(=O)OC[C@H]1O[C@@](C#N)(c2ccc3c(N)ncnn23)[C@H](O)[C@@H]1O` gave an inhibition of 6% (5-hydroxytryptamine receptor 1B (HTR1B, Homo sapiens, UniProt P28222); cell-free assay; 20 µM).
For `C[C@@H](O)[C@@H]1NC(=O)[C@H](CCCNC(=N)N)NC(=O)[C@@H](Cc2ccccc2)NC(=O)[C@H](Cc2ccccc2)NC(=O)CNC1=O`, the IC90 was > 16 µg/mL (Balamuthia mandrillaris; parasite growth, ATP luminescence).
The IC50 of `Cn1cc2c3c1C(=O)C(N)=CC3=NCC2` is reported as 2800 nM (Babesia duncani; parasite growth, SYBR Green; 60 h, blood stage).
`CO/C=C(/C(=O)OC)c1ccccc1Oc1cc(Oc2ccccc2C#N)ncn1` has an inhibition of 46.4% (Pyricularia grisea; microbial growth; 50 µg/mL).
`O=C1C=C2NCCc3c[nH]c(c32)C1=O` gave an IC50 of 71200 nM (Babesia duncani; parasite growth, SYBR Green; 60 h, blood stage).
`N#Cc1cncc(Cn2c(=S)[nH]c3cc(CO)c(Cl)cc3c2=O)c1` has an IC50 of 1410 nM (4'-phosphopantetheinyl transferase PptT; enzyme activity, inhibitor, FP).
The remaining binding of `Nc1ncc(-c2nc(N3CCOCC3)nc(N3CCOCC3)n2)c(C(F)F)n1` is reported as 91% (BMP-2-inducible protein kinase (BMP2K, Homo sapiens, UniProt Q9NSY1); binding, competition with immobilised ligand; 10 µM).

For quick reference, copied from above:
For `COC(=O)c1cc(-c2cccc(NC(=O)Nc3ccc(Cl)c(C(F)(F)F)c3)c2)on1`, the MIC was > 64 µg/mL (Escherichia coli; microbial growth, broth dilution; ATCC25922).
`[2H]c1c([2H])c([C@]2([2H])CCCN2C(=O)C(C)(C)Oc2ccc3cn[nH]c3c2)c([2H])c([2H])c1C([2H])([2H])[2H]` gave a remaining binding of 94% (Ephrin type-A receptor 6 (EPHA6, Homo sapiens, UniProt Q9UF33); binding, competition with immobilised ligand; 1 µM).
For `COc1ccc(Nc2nn3c(-c4ccccc4)ccnc3c2C(=O)Nc2ccc(Cl)cc2)cc1`, the viability was 38.3% (A549; cell growth or viability, MTT; 50 µg/mL, 48 h, serum-free).
`COC(=O)c1cc(-c2cccc(NC(=S)Nc3cc(C(F)(F)F)cc(C(F)(F)F)c3)c2)on1` gave an MIC of > 64 µg/mL (Acinetobacter baumannii; microbial growth, broth dilution; BAA1605).
For `COc1ccc(Nc2nn3c(-c4ccccc4)ccnc3c2C(=O)Nc2ccccc2)cc1`, the viability was 98.7% (A549; cell growth or viability, MTT; 6.25 µg/mL, 48 h, serum-free).
